Measured values from different studies.
Numbered parts are unrelated; each lists some results of a single study.

Block 1
Target: Beta-1 adrenergic receptor (ADRB1, Homo sapiens, UniProt P08588)
Chain of UniProt P08588 (whole entry, looked up): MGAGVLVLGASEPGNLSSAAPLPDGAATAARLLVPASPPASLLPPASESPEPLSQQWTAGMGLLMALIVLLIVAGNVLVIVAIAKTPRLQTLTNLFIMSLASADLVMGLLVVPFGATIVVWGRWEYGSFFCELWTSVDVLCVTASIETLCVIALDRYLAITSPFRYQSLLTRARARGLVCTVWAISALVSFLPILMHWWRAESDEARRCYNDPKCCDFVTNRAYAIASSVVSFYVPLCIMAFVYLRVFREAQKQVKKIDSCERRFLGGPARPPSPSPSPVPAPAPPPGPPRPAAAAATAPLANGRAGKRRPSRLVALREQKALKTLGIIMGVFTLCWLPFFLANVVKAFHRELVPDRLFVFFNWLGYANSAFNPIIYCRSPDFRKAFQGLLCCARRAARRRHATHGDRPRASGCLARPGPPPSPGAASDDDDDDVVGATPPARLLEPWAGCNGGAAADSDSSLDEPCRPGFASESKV
Mode: antagonist
SMILES | IC50 [µM]
O=C(CSc1nc2ccccc2n1CCc1ccccc1)c1ccc(O)c(O)c1 | ≥ 100
Cc1ccc(CNc2ncnc3[nH]ncc23)o1 | ≥ 100
COc1ccc(-c2cnc3[nH]nc(-c4ccc(F)cc4C)c3n2)cn1 | ≥ 100
CCOC(=O)c1ccc(NC(=O)N2Cc3nc[nH]c3C[C@H]2c2nc(C(C)C)no2)cc1 | ≥ 100
COc1ccc(S(=O)(=O)N2CCN(c3ccccc3OC)CC2)cc1OC | ≥ 100
CCN(CC)c1ccc(C2=C(Cl)C(=O)c3ncccc3C2=O)cc1 | ≥ 100
COc1ccccc1N1CCN(C(C)C(=O)Nc2ccc(C(N)=O)cc2)CC1 (stereo not shown) | ≥ 100
COc1cc(CNC2CCCCCCC2)ccc1OCC(O)CN1CCSCC1 (stereo not shown) | ≥ 100
NCCn1cc(C(=O)NCC(O)c2ccccc2C(F)(F)F)nn1 (stereo not shown) | ≥ 100
O=C(NCC(O)c1ccccc1)c1cnn2c(-c3ccccc3)ccnc12 (stereo not shown) | ≥ 100
CC#CCn1cc2c3c(cccc31)[C@H](CC(C)C)N[C@H](C(=O)NCCN1CCOCC1)C2 | ≥ 100
COc1ccccc1-c1n[nH]c2ncc(-c3cccc(F)c3)nc12 | ≥ 100
COc1ccccc1N1CCC(N2C(=O)N3CCCC3(C)C2=O)C1 (stereo not shown) | ≥ 100

Block 2
Target: MAP kinase-interacting serine/threonine-protein kinase 1 (MKNK1, Homo sapiens, UniProt Q9BUB5)
Chain of UniProt Q9BUB5 (whole entry, looked up): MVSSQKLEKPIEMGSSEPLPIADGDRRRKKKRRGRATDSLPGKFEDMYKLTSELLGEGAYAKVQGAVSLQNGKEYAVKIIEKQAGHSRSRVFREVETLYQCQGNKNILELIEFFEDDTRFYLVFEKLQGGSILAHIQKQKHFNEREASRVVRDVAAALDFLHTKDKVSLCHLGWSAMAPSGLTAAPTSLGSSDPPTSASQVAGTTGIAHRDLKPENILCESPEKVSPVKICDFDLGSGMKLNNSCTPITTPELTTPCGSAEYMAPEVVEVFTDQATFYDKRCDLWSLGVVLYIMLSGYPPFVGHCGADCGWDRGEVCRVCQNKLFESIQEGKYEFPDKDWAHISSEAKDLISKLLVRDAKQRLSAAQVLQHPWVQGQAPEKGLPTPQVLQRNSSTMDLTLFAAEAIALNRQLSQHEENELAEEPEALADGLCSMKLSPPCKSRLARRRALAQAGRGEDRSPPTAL
Effect on: enzyme activity
Mode: inhibitor
Tested at: 0.5 µM
Reference: control
SMILES | remaining activity [%]
COc1ccc(S(=O)(=O)N(CCO)c2ccccc2CN(C)CC=Cc2ccc(Cl)cc2)cc1 | 103
Oc1ccc(Nc2nc(-c3ccc(Cl)cc3)cs2)cc1 | 98.9
Cc1cc(Nc2nc(-c3ccccc3)nc3ccccc23)n[nH]1 | 93.5
CSc1nc(-c2ccnc(N[C@@H](C)c3ccccc3)c2)c(-c2ccc(F)cc2)[nH]1 (racemic) | 97.1
CC#CC(=O)Nc1cc2c(Nc3ccc(F)c(Cl)c3)ncnc2cn1 | 89.5
NC(=O)c1ccc(N(C(N)=O)c2c(F)cccc2F)nc1-c1ccc(F)cc1F | 91.4
N#CC(=C(N)Sc1ccc(N)cc1)c1ccccc1C(F)(F)F | 103
Cc1ccc(NC2=CC(=O)c3sc(C)nc3C2=O)cc1 | 117
CCc1[nH]c(-c2ccc(OC)cc2)nc1-c1ccncc1 | 115
Nc1nc(Nc2ccc(S(N)(=O)=O)cc2)nn1C(=O)c1c(F)cccc1F | 90.9
Nc1ncnc2c1cnn2-c1ccccc1 | 81.4
O=C1Cc2c([nH]c3ccc([N+](=O)[O-])cc23)-c2ccccc2N1 | 76.9
CC[n+]1c(/C=C/N(C)c2ccccc2)n(-c2ccccc2)c2ccc(-c3nc4ccccc4s3)cc21 | 102
Fc1ccc(-c2nc3n(c2-c2ccncc2)CCS3)cc1 | 102
Cc1cncc2cccc(S(=O)(=O)N3CCCN(C(=O)CN)C[C@@H]3C)c12 | 90.5
CCCC(=O)Oc1ccc2[nH]c(C(=O)c3cc4ccccc4[nH]3)cc2c1 | 101
O=C1NC(=O)C(c2c[nH]c3ccccc23)=C1c1c[nH]c2ccccc12 | 115
Nc1nccc(-c2c(-c3ccc(F)cc3)ncn2C2CCNCC2)n1 | 99
CC(=O)c1ccc(N2CCOCC2)cc1O | 102

Block 3
Species: mouse
Matrix: microsomes or S9
Tested at: 2 µM
Time: 0.5 h
Compound | remaining compound
COC(=O)C1=C(\N2CCOCC2)CCCC/C=C\1C(=O)OC | 5.33%
CCC(c1nc2c3c(C)c(C)n(-c4cc(C)ccn4)c3ncn2n1)N1C(=O)c2ccccc2C1=O (stereo not shown) | 53%
CCC(C)(CNC(=O)c1sc(-c2c(C)noc2C)nc1C)OC (stereo not shown) | 41.7%
C[C@H]1CCCC(=O)CCC/C=C/c2cc(OCc3ccc(Cl)c(Cl)c3)cc(OCc3ccc(Cl)c(Cl)c3)c2C(=O)O1 | 45.7%
O=c1c2cc3c(=O)n(-c4cc(Cl)cc(Cl)c4)ccc3nc2ccn1CCCO | 71.2%
Cc1n[nH]c(O)c1C(c1ccc(F)cc1)c1c(C)n[nH]c1O | 62.3%
Cc1noc(-c2cccn2Cc2ccc(F)cc2Cl)n1 | 48.8%
Cc1cc(CNc2ccc(-c3nc(CCCc4ccccc4)no3)cn2)n[nH]1 | 47.2%
Cc1ccc(-c2noc(CCC(=O)NC(C)c3ccc(Cl)cc3)n2)c(=O)n1C(C)C (stereo not shown) | 0.0801%
NCCN1CCOC(CC(=O)Nc2cc(Cl)cc(Cl)c2)C1=O (stereo not shown) | 70.2%
COc1nc(OC)c2nno/c(=N\Cc3ccc(F)cc3)c2n1 | 0.788%
O=c1c2ccccc2nc(-c2ccco2)n1-c1cccc2ccccc12 | 82.8%
O=c1c(/C=N/Nc2nc3ccccc3s2)c(C(F)(F)F)[nH]n1-c1nc2ccccc2s1 | > 99%
COc1cc(=O)[nH]cc1C(=O)N1CCOC(C)(c2ccccc2)C1 (stereo not shown) | 88.5%
COC(=O)c1cc(Cl)c(NC(=O)c2cc(OC)c(OC)c(OC)c2)cc1OC | 49.7%

Single results of other studies
Target: Histamine H1 receptor (HRH1, Homo sapiens, UniProt P35367)
Chain of UniProt P35367 (whole entry, looked up): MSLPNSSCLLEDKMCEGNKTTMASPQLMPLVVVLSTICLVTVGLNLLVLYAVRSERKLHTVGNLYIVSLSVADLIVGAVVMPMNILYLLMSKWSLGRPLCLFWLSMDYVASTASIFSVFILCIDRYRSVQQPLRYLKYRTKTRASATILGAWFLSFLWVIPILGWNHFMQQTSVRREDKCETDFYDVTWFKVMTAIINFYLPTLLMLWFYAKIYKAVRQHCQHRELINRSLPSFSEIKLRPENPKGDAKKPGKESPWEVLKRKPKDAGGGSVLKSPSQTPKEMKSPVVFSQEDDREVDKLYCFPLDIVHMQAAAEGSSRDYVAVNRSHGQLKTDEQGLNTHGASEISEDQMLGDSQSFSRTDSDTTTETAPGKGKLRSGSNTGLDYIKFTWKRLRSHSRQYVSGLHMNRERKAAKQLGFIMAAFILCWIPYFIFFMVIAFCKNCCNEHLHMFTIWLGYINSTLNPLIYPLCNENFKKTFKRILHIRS
Effect on: binding
Technique: radioligand binding
Structure (SMILES) | Ki [µM]
Cc1c(NC(=O)c2cc(C(N)=O)nc3cc(F)ccc23)c(C(F)(F)F)nn1Cc1ccc(C#N)cc1 | > 10
CCCCN(CCCC)C(=O)CN1C[C@H](c2cc(OC)c3c(c2)OCO3)[C@@H](C(=O)O)[C@@H]1CC(C)(C)CCC | > 10

Excerpt of the above (block 2):
SMILES | remaining activity [%]
Fc1ccc(-c2nc3n(c2-c2ccncc2)CCS3)cc1 | 102
CCc1[nH]c(-c2ccc(OC)cc2)nc1-c1ccncc1 | 115
CSc1nc(-c2ccnc(N[C@@H](C)c3ccccc3)c2)c(-c2ccc(F)cc2)[nH]1 (racemic) | 97.1
